Published values from different studies.
Lines come from different studies, so protocols differ. ± marks the error that the study gave.
DRD2 long isoform: D(2) dopamine receptor, long isoform (DRD2, Homo sapiens, UniProt P14416)
Sequence of UniProt P14416 (whole entry, looked up): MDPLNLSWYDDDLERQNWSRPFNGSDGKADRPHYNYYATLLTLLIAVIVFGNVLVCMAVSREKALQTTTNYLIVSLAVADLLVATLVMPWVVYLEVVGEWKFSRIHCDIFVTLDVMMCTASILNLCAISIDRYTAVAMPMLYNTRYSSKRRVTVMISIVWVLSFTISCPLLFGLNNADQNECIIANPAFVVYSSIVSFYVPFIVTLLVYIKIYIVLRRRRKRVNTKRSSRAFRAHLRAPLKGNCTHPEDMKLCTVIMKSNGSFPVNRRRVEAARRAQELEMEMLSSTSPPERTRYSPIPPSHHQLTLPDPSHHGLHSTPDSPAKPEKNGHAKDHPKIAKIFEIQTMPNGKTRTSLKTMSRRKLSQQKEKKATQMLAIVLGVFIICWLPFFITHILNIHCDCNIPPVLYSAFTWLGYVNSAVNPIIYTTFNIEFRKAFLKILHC
DRD2: D(2) dopamine receptor (DRD2, Homo sapiens, UniProt P14416)

| target | assay | test system | setting | measurement | value | Compound |
| --- | --- | --- | --- | --- | --- | --- |
| DRD2 long isoform | β-arrestin2 recruitment, agonist, Tango | human cells |  | log(τ/KA) | 8.39 ± 0.15 | Cc1cc2c(N3CCN(CCCCOc4ccc5c(c4)NC(=O)CC5)CC3)cccc2n1C |
| DRD2 | PDSP screening |  |  | off-target affinity | inactive | CCCC(CCC)c1nc2c(Nc3ccc(C#CCCCCCCCCN)cc3)nc3ccccc3c2[nH]1 |
| DRD2 | binding, radioligand binding |  | 10 µM | inhibition | -2% | Ic1cccc2cnccc12 |
| DRD2 |  |  | 10 µM | inhibition | 14.3% | O=C(c1ccc(Cl)cc1)N(Cc1ccccc1)C1CCCCC1 |
| DRD2 | radioligand binding |  | 10 µM, with: [3H]N-methylspiperone | inhibition | 96.2% | COc1cc2c(cc1OC)C(=O)N(CCCCN1CCN(c3ccccc3OC)CC1)C2 |
| DRD2 long isoform | beta-arrestin recruitment, antagonist, PathHunter chemiluminescence |  | 20 µM, with: agonist at EC80 | inhibition | 15% | CC[C@]12CCCN3CCc4c([nH]c5ccccc45)[C@]31N(Cc1cn(Cc3ccccc3)nn1)C(=O)C2 |
| DRD2 |  |  | 10 µM | inhibition | 1.85% | CN(C(=O)n1cnc(-c2ccc[n+]([O-])c2)c1)C1CCCCC1 |
| DRD2 | radioligand binding, PDSP competition binding |  | 10 µM | inhibition | < 50% | OCCCN1CC[C@@H]2C[C@H]1c1cc(-c3ccc(C(F)(F)F)cc3)ccc12 |
| DRD2 |  |  | 10 µM | inhibition | 1.82% | CCS(=O)(=O)c1nc(S(=O)(=O)c2ccccc2Cl)c(N2CCN(C)C(=O)[C@H]2C)s1 |
| DRD2 | radioligand binding, radioligand displacement |  | 10 µM, mean of replicates | inhibition | -4.77% | O=C(NO)c1ccc(CN2CCCCc3ccccc32)c(F)c1 |
| DRD2 long isoform | β-arrestin2 recruitment, agonist, Tango | human cells |  | log(τ/KA) | 9.11 ± 0.01 | Cc1cc2c(N3CCN(CCCCOc4ccc5c(c4)NC(=O)CC5)CC3)cccc2[nH]1 |
| DRD2 |  |  | 10 µM | inhibition | -5.7% | Oc1cccc(Nc2nc(-c3ccc(F)cc3F)cs2)c1 |

Some of these lines once more:
| target | assay | test system | setting | measurement | value | Compound |
| --- | --- | --- | --- | --- | --- | --- |
| DRD2 |  |  | 10 µM | inhibition | -5.7% | Oc1cccc(Nc2nc(-c3ccc(F)cc3F)cs2)c1 |
